Published values from different studies.
Protocols differ between the studies behind these lines. ± gives the spread as reported.

For O=C(Cc1ccc2ccccc2c1)N[C@H](Cc1ccc(O)cc1)C(=O)N[C@H](Cc1ccccc1)C(=O)N[C@H](Cc1ccccc1)C(=O)N[C@H](Cc1ccc(O)cc1)C(=O)O, the IC50 was greater than 500 µg/mL (A2780cis; cell growth or viability, MTT).
C[C@H]1[C@H](OC(=O)CCC(=O)OCCc2ccc(OC(=O)CCC(=O)O[C@@H]3O[C@@H]4O[C@@]5(C)CC[C@H]6[C@H](C)CC[C@@H]([C@H]3C)[C@@]46OO5)cc2)O[C@@H]2O[C@@]3(C)CC[C@H]4[C@H](C)CC[C@@H]1[C@@]24OO3 has an IC50 of 0.49 µM (RPMI-7951; cell growth or viability, MTT; 24 h).
With CC(C)C[C@H](NC(=O)[C@H](CCCCN)NC(=O)[C@H](CC(C)C)NC(=O)[C@H](CC(C)C)NC(=O)[C@H](CCCCN)NC(=O)[C@H](CCCCN)NC(=O)[C@H](CC(C)C)NC(=O)[C@H](CC(C)C)NC(=O)[C@H](CCCCN)NC(=O)[C@H](CC(C)C)NC(=O)[C@H](CC(C)C)NC(=O)[C@H](CCCCN)NC(=O)[C@H](CCCCN)NC(=O)[C@H](CC(C)C)NC(=O)[C@@H](N)CSSC[C@H](N)C(=O)N[C@@H](CC(C)C)C(=O)N[C@@H](CCC(=O)O)C(=O)N[C@@H](Cc1c[nH]cn1)C(=O)N[C@@H](CC(C)C)C(=O)N[C@@H](CC(C)C)C(=O)N[C@@H](CCC(=O)O)C(=O)N[C@@H](Cc1c[nH]cn1)C(=O)N[C@@H](CC(C)C)C(=O)N[C@@H](CCC(=O)O)C(=O)N[C@@H](Cc1c[nH]cn1)C(=O)N[C@@H](CC(C)C)C(=O)N[C@@H](CC(C)C)C(=O)N[C@@H](CCC(=O)O)C(=O)N[C@@H](Cc1c[nH]cn1)C(N)=O)C(N)=O the IC50 was 12.2 µM (HK-2; cell growth or viability, MTT; pH 6).
NC1CC1c1ccc(NC(=O)C(Cc2ccccc2)NC(=O)OCc2ccc(Br)cc2)cc1 (centres unmarked) has an IC50 of 5.3 ± 0.4 µM (MV4-11 (AML)).
CC(C)C[C@H](NC(=O)[C@H](CCCCN)NC(=O)[C@H](CC(C)C)NC(=O)[C@H](CC(C)C)NC(=O)[C@H](CCCCN)NC(=O)[C@H](CCCCN)NC(=O)[C@H](CC(C)C)NC(=O)[C@H](CC(C)C)NC(=O)[C@H](CCCCN)NC(=O)[C@H](CC(C)C)NC(=O)[C@H](CC(C)C)NC(=O)[C@H](CCCCN)NC(=O)[C@H](CCCCN)NC(=O)[C@@H](N)CC(C)C)C(N)=O has an IC50 of 8.6 µM (HK-2; cell growth or viability, MTT; pH 7.4).
With C#CCCCC[C@H](C)C[C@@H](C)C(=O)N[C@@H](C)C(=O)N1CCC[C@H]1C(=O)N[C@H](C(=O)N[C@H](C(=O)N[C@H](C(=O)N[C@@H](Cc1ccccc1)C(=O)N1CCC[C@H]1C(=O)N1CCC[C@H]1C(C)=O)C(C)C)C(C)C)C(C)C the IC50 was 328 µM (HEK293; cell growth or viability, SRB).
The IC50 of O=C1[O][Pt]2([OH])([OH])([NH]C3CCCCC3[NH]2)[O]C1=O (centres unmarked) is reported as greater than 100 µM (IMR-90; cell growth or viability, resazurin; 72 h).
COc1cc(C(c2c(C)nn(-c3ccccc3)c2O)c2c(C)nn(-c3ccccc3)c2O)cc(OC)c1OC gave an IC50 of greater than 40 µM (HEK293; cell growth or viability, MTT; 48 h).
With CC[C@H](C)[C@@H]1NC(=O)[C@H](CCCNC(=N)N)NC(=O)C[C@H](c2cccc3ccccc23)NC(=O)[C@@H]2CSSC[C@H](NC(=O)C[C@H](c3cccc4ccccc34)NC(=O)[C@H](CCCNC(=N)N)NC(=O)[C@@H]3CCCN3C(=O)[C@@H]3CCCN3C1=O)C(=O)N[C@@H](Cc1ccccc1)C(=O)N1CCC[C@H]1C(=O)N[C@@H](CC(=O)O)C(=O)N[C@@H](CC(=O)O)C(=O)N[C@@H](Cc1ccccc1)C(=O)N2 the IC50 was 2.94 ± 1.05 µM (BT-474 (HER2+); cell growth; 72 h).
For CC(C)C[C@@H](NC(=O)CCNc1ccc([N+](=O)[O-])c2nonc12)C(=O)N[C@H](CC(C)C)C(=O)N[C@H](CC(C)C)C(=O)N[C@H](CC(C)C)C(=O)N[C@H](Cc1ccc(OP(=O)(O)O)cc1)C(=O)O, the IC50 was 69 µM (SJSA-1; cell viability, MTT; 24 h).
The IC50 of C[C@H]1[C@H](OC(=O)CCC(=O)OCCc2ccc(O)cc2)O[C@@H]2O[C@@]3(C)CC[C@H]4[C@H](C)CC[C@@H]1[C@@]24OO3 is reported as 0.09 µM (RPMI-7951; cell growth or viability, MTT; 24 h).
CC(C)C[C@H](NC(=O)[C@H](CC(C)C)NC(=O)[C@H](CC(=O)O)NC(=O)[C@H](CCCCN)NC(=O)[C@H](Cc1ccccc1)NC(=O)CN)C(=O)N[C@@H](CCCCN)C(=O)N[C@H]1CSCc2cccc(c2)CSC[C@@H](C(=O)N[C@@H](CC(C)C)C(=O)N[C@H](C(=O)N[C@@H](CCCCN)C(=O)N[C@H](C(=O)N[C@H](C(=O)N[C@@H](CC(C)C)C(=O)N[C@@H](Cc2ccccc2)C(N)=O)C(C)C)[C@@H](C)O)C(C)C)NC(=O)[C@H](CCCCN)NC(=O)[C@H](C)NC(=O)[C@H](C)NC1=O has an IC50 of 4.89 µM (U87; cell proliferation, CCK-8; 48 h).
Cc1cc(C)c(-n2ccn(-c3c(C)cc(C)cc3C)c2=[Se])c(C)c1.[Cl][Au] has an IC50 of 0.4 µM (A2780; cell growth or viability, MTT; 72 h).
CC(C)C[C@H](NC(=O)[C@H](CCCCN)NC(=O)[C@H](CCCCN)NC(=O)[C@H](CC(C)C)NC(=O)[C@H](CC(C)C)NC(=O)[C@H](CCCCN)NC(=O)[C@H](CCCCN)NC(=O)[C@H](CC(C)C)NC(=O)[C@H](CC(C)C)NC(=O)[C@H](CCCCN)NC(=O)[C@H](CCCCN)NC(=O)[C@H](CC(C)C)NC(=O)[C@@H](N)CC(C)C)C(=O)N[C@@H](CCCC(=O)O)C(N)=O has an IC50 of less than 6 µM (HCCC9810; cell growth or viability, CCK-8).
For CC(C)c1cccc(C(C)C)c1-n1c[n+](-c2c(C(C)C)cccc2C(C)C)c2c1-c1cccc3cccc-2c13.[Cl][Pd-]([Cl])[CH2]C=Cc1ccccc1, the IC50 was 5.5 ± 0.4 µM (C13 cisplatin-resistant; cell viability, MTT; 72 h).
For C=C(C)CC(OC)C(O)C(=O)NC(OC)C1CC(=C)C(C)(C)C(CC(O)C(C)C2Cc3c(C)c(O)cc(O)c3C(=O)O2)O1 (single isomer, unassigned; (+)), the IC50 was 0.0016 µM (H522-T1; cell growth or viability).
O=C(Cc1ccc2ccccc2c1)N[C@H](Cc1ccccc1)C(=O)N[C@H](Cc1ccccc1)C(=O)N[C@H](Cc1ccc(O)cc1)C(=O)N[C@H](Cc1ccc(OP(=O)(O)O)cc1)C(=O)O has an IC50 of 354 µg/mL (HS5; cell growth or viability, MTT).
For Cc1cc(C)c(N2CCN(c3c(C)cc(C)cc3C)C2=[Se])c(C)c1.[Cl][Ag], the IC50 was 1.4 ± 0.6 µM (LoVo MDR; MTT; 72 h).
For O=C1C(Cl)=C(Cl)C(=O)c2ccccc21, the IC50 was 3.61 µM (MOLT-3; cell growth or viability, XTT; 48 h).
With CC(C)C[C@H](NC(=O)[C@H](CC(C)C)NC(=O)[C@H](CCC(=O)O)NC(=O)[C@H](Cc1c[nH]cn1)NC(=O)[C@H](CC(C)C)NC(=O)[C@H](Cc1c[nH]cn1)NC(=O)[C@H](CCC(=O)O)NC(=O)[C@H](CC(C)C)NC(=O)[C@H](CC(C)C)NC(=O)[C@H](CCC(=O)O)NC(=O)[C@H](Cc1c[nH]cn1)NC(=O)[C@@H](N)CC(C)C)C(=O)N[C@@H](CCC(=O)O)C(=O)N[C@@H](Cc1c[nH]cn1)C(N)=O the IC50 was greater than 100 µM (HK-2; cell growth or viability, MTT; pH 7.4).
CCCCCCCCCCCCN(CCCCCCCCCCCC)C1=[S+][Au-]2([S]1)[c]1ccccc1-c1cccc[c]12 has an IC50 of 89.1 µM (BT-333 glioblastoma; MTT; 72 h).
CC[C@@]1(O)C(=O)OCc2c1cc1n(c2=O)Cc2c-1nc1cc(F)c(C)c3c1c2[C@@H](NC(=O)CO)CC3 gave an IC50 of 0.004 µM (KPL4; cell growth or viability, ATP luminescence; 5 days).
With C=C(C)C[C@H](OC)[C@H](O)C(=O)N[C@@H](OC)[C@@H]1C[C@H](O)C(C)(C)[C@@H](C[C@H](O)[C@@H](C)[C@H]2Cc3c(C)c(O)cc(O)c3C(=O)O2)O1 the IC50 was 0.0004 µM (A2058; cell growth or viability).
CC(C)C[C@H](NC(=O)[C@H](CCCCN)NC(=O)[C@H](CC(C)C)NC(=O)[C@H](CC(C)C)NC(=O)[C@H](CCCCN)NC(=O)[C@H](CCCCN)NC(=O)[C@H](CC(C)C)NC(=O)[C@H](CC(C)C)NC(=O)[C@H](CCCCN)NC(=O)[C@H](CC(C)C)NC(=O)[C@H](CC(C)C)NC(=O)[C@H](CCCCN)NC(=O)[C@H](CCCCN)NC(=O)[C@H](CC(C)C)NC(=O)[C@@H](N)CSSC[C@H](N)C(=O)N[C@@H](CC(C)C)C(=O)N[C@@H](CCC(=O)O)C(=O)N[C@@H](CCC(=O)O)C(=O)N[C@@H](CC(C)C)C(=O)N[C@@H](CC(C)C)C(=O)N[C@@H](Cc1c[nH]cn1)C(=O)N[C@@H](Cc1c[nH]cn1)C(=O)N[C@@H](CC(C)C)C(=O)N[C@@H](CCC(=O)O)C(=O)N[C@@H](CCC(=O)O)C(=O)N[C@@H](CC(C)C)C(=O)N[C@@H](CC(C)C)C(=O)N[C@@H](Cc1c[nH]cn1)C(=O)N[C@@H](Cc1c[nH]cn1)C(N)=O)C(N)=O gave an IC50 of 13.6 µM (RG; cell viability, MTT; 0.5 h, pH 6.0).
The IC50 of C[C@H]1[C@H](OC(=O)CCC(=O)Oc2ccc(C(N)=S)cc2)O[C@@H]2O[C@@]3(C)CC[C@H]4[C@H](C)CC[C@@H]1[C@@]24OO3 is reported as 8.48 µM (K562/Adr; cell growth or viability, CCK-8; 72 h).
The IC50 of O=C(N=P12CN3CN(CN(C3)C1)C2)c1cccc[c]1[Pd][Br].c1cncc(P(c2cccnc2)c2cccnc2)c1 is reported as 298 ± 14 µM (human PBMC; cytotoxicity, MTT; 24 h, 1% DMSO).
With CC(C)C[C@H](NC(=O)[C@H](CCCCN)NC(=O)[C@H](CC(C)C)NC(=O)[C@H](CC(C)C)NC(=O)[C@H](CCCCN)NC(=O)[C@H](CCCCN)NC(=O)[C@H](CC(C)C)NC(=O)[C@H](CC(C)C)NC(=O)[C@H](CCCCN)NC(=O)[C@H](CC(C)C)NC(=O)[C@H](CC(C)C)NC(=O)[C@H](CCCCN)NC(=O)[C@H](CCCCN)NC(=O)[C@H](CC(C)C)NC(=O)[C@@H](N)CSSC[C@H](N)C(=O)N[C@@H](CC(C)C)C(=O)N[C@@H](Cc1c[nH]cn1)C(=O)N[C@@H](CCC(=O)O)C(=O)N[C@@H](CC(C)C)C(=O)N[C@@H](CC(C)C)C(=O)N[C@@H](CCC(=O)O)C(=O)N[C@@H](Cc1c[nH]cn1)C(=O)N[C@@H](CC(C)C)C(=O)N[C@@H](Cc1c[nH]cn1)C(=O)N[C@@H](CCC(=O)O)C(=O)N[C@@H](CC(C)C)C(=O)N[C@@H](CC(C)C)C(=O)N[C@@H](CCC(=O)O)C(=O)N[C@@H](Cc1c[nH]cn1)C(N)=O)C(N)=O the IC50 was greater than 100 µM (HK-2; cell growth or viability, MTT; pH 7.4).
[Cl][Au-]1([Cl])[c]2ccccc2P(c2ccccc2)(c2ccccc2)=[N+]1c1ccccc1 gave an IC50 of 2.57 µM (Jurkat; cell growth or viability, flow cytometry; 24 h).
For [Cl][Au].[Se]=c1n(C2CCCCC2)ccn1C1CCCCC1, the IC50 was 0.3 µM (A2780; cell growth or viability, MTT; 72 h).

For quick reference, copied from above:
With CC(C)C[C@H](NC(=O)[C@H](CCCCN)NC(=O)[C@H](CC(C)C)NC(=O)[C@H](CC(C)C)NC(=O)[C@H](CCCCN)NC(=O)[C@H](CCCCN)NC(=O)[C@H](CC(C)C)NC(=O)[C@H](CC(C)C)NC(=O)[C@H](CCCCN)NC(=O)[C@H](CC(C)C)NC(=O)[C@H](CC(C)C)NC(=O)[C@H](CCCCN)NC(=O)[C@H](CCCCN)NC(=O)[C@H](CC(C)C)NC(=O)[C@@H](N)CSSC[C@H](N)C(=O)N[C@@H](CC(C)C)C(=O)N[C@@H](Cc1c[nH]cn1)C(=O)N[C@@H](CCC(=O)O)C(=O)N[C@@H](CC(C)C)C(=O)N[C@@H](CC(C)C)C(=O)N[C@@H](CCC(=O)O)C(=O)N[C@@H](Cc1c[nH]cn1)C(=O)N[C@@H](CC(C)C)C(=O)N[C@@H](Cc1c[nH]cn1)C(=O)N[C@@H](CCC(=O)O)C(=O)N[C@@H](CC(C)C)C(=O)N[C@@H](CC(C)C)C(=O)N[C@@H](CCC(=O)O)C(=O)N[C@@H](Cc1c[nH]cn1)C(N)=O)C(N)=O the IC50 was greater than 100 µM (HK-2; cell growth or viability, MTT; pH 7.4).
